Measurements pooled from the literature.
Lines come from different studies, so protocols differ. “And” joins repeats or separate records; there may be more than shown. ± marks the error that the study gave.
PRKCI: Protein kinase C iota type (PRKCI, Homo sapiens, UniProt P41743)
DDR2: Discoidin domain-containing receptor 2 (DDR2, Homo sapiens, UniProt Q16832)
fdhA: fdhA (Pseudomonas putida, UniProt P46154)

| Structure (SMILES) | target | test | test system | setting | scale | remaining activity |
| --- | --- | --- | --- | --- | --- | --- |
| NC(=O)c1ncn([C@@H]2O[C@H](CO[P@@](=O)(O)O[P@](=O)(O)OP(=O)(O)O)[C@@H](O)[C@H]2O)n1 | Non-structural polyprotein pORF1, helicase domain (Hepatitis E virus genotype 1, UniProt P33424) | ATPase activity, inhibitor, colorimetric | – | 3.5 µM | reference: untreated | 77.7% |
| COc1cc(-c2cncc3c2CN(C)Cc2cc(N4CCNCC4)ccc2-3)cc(OC)c1OC | PRKCI | kinase activity | – | 1 µM, human enzyme, with: ATP 10 µM | reference: DMSO control | 105% |
| O=C(c1ccc(F)cc1)C1CCN(CCn2c(=O)[nH]c3ccccc3c2=O)CC1 | Diacylglycerol kinase gamma (Dgkg, Rattus norvegicus, UniProt P49620) | enzyme activity, DAG kinase | HEK293T lysate overexpressing | 50 µM, unit not given, with: [γ32P]-ATP | reference: DMSO vehicle | 0.91 |
| O=C1NC(=O)/C(=C/c2ccc(-c3ccc(F)cc3O)o2)S1 | EEF2K (Homo sapiens, UniProt O00418) | enzyme activity | – | 10 µM | – | 91% |
| CC(=O)ON=C1C=CC(=C(C#N)c2ccccc2)C=C1 | Glycogen synthase kinase 3 (Plasmodium falciparum, UniProt O77344) | enzyme activity, inhibitor, ADP-Glo | – | 2 µM, about MIC/10, with: ATP 10 µM | – | 83% |
| Cc1cccc(C)c1C(=O)OCC(=O)[C@H](CCCCN)NC(=O)[C@H](CCCNC(=N)N)NC(=O)OCc1ccccc1 | Pro-cathepsin H (Ctsh, Mus musculus, UniProt P49935) | inhibitor | – | 0.01 µM, room temperature, with: AMC substrate | – | 91% |
| c1cnc2ccc(Nc3nc(NC4CC4)c4nc[nH]c4n3)cc2c1 | DDR2 | kinase activity, inhibitor, SelectScreen kinase profiling | – | 1 µM | reference: control | 90% |
| OC[C@H]1OC(O)[C@H](O)[C@@H](O)[C@@H]1O (stereo partly shown) | uncharacterized protein (Paenibacillus xylanivorans, UniProt A0A0N0C5Q2) | enzyme activity, product inhibitor | – | 900000 µM, pH 4.5, 40 °C | – | > 50% |
| COc1cc(F)ccc1-c1ncnc(Nc2cccc(C[S@](C)(=N)=O)c2)n1 | DDR2 | kinase activity | – | 10 µM, with: 10 µM ATP | – | 90% |
| CNc1ncc2c(/C=C/C(=O)N3CCC(OC)CC3)nn(Cc3cccc(C(F)(F)F)c3)c2n1 | AKT3 (Homo sapiens, UniProt Q9Y243) | kinase activity, inhibitor | – | 1 µM | reference: untreated control | 96% |
| COc1cc(Nc2ncc3c(n2)-c2ccc(Cl)cc2C(c2c(F)cccc2OC)=NC3)ccc1C(=O)O | PRKCN | kinase activity | – | 1 µM | – | 102% |
| C=CC(=O)N1CCC[C@@H](n2nc(-c3ccc(Oc4ccccc4)cc3)c3c(N)ncnc32)C1 | TESK2 (Homo sapiens, UniProt Q96S53) | – | – | 1 µM | – | 83.5% |
| O=C(NC1CCC1)c1ccc2nc(-c3cccc(NS(=O)(=O)NCCN4CCCCC4)c3)cn2c1 | PRKCI | enzyme activity | – | 10 µM | – | 100% |
| C=CC(=O)N1CCC([C@@H]2CCNc3c(C(N)=O)c(-c4ccc(Oc5ccccc5)cc4)nn32)CC1 | MAP3K20 (Homo sapiens, UniProt Q9NYL2) | kinase activity, inhibitor, HotSpot radiometric | – | 100 nM, with: ATP 10 µM | – | 100.6 ± 0.5% |
| CC(C)OCCn1c(=S)[nH]c(=O)c2[nH]ccc21 | Myeloperoxidase (MPO, Homo sapiens, UniProt P05164) | chlorination activity | – | 1.25 µM, 0.1 h, with: iodide, TMB | – | 28.8% |
| O=C(O)c1ccc(Nc2ncc3c(n2)-c2ccc(Cl)cc2C(c2c(F)cccc2F)=NC3)cc1 | NEK2(h) | kinase activity | – | 1 µM | – | 110% |
| C/C(CC(O)(C(F)(F)F)C(F)(F)F)=N/Nc1ccc([N+](=O)[O-])cc1[N+](=O)[O-] | fdhA | – | – | concentration not given, no demethylase | – | > 80% |
| COc1cc(N2CCN(C)CC2)ccc1Nc1nc(N)n(C(=S)NCc2c(Cl)cccc2Cl)n1 | MINK1 (Homo sapiens, UniProt Q8N4C8) | enzyme activity | – | 10 µM | reference: control | 2.8% |
| C[C@@H](Oc1ccc(S(C)(=O)=O)cc1C(=O)N1C[C@@H]2C[C@]2(c2cc(C(F)(F)F)on2)C1)C(F)(F)F | SLC6A9 (Homo sapiens, UniProt P48067) | glycine uptake, inhibitor, [3H]glycine uptake | – | 0.001 µM, log concentration 1, with: [3H]glycine, 3.5 mg/mL methyl-β-cyclodextrin | reference: no inhibitor | 87% |
| NC/C(=C\F)COc1cccc(Cn2c(=S)[nH]c(=O)c3[nH]cnc32)c1 | AOC3 (Homo sapiens, UniProt Q16853) | dilution jump | – | concentration not given | reference: DMSO control | 7.9% and 11.2% and 17.5% |
| Cc1cc(Nc2cc(N3CCN(C)CC3)nc(Sc3ccc(NC(=O)C4CC4)cc3)n2)[nH]n1 | CLK3 (Homo sapiens, UniProt P49761) | kinase activity, KinaseProfiler | – | 0.03 µM, species human | reference: control | 93% |
| CCCCCC/C(C)=N/Nc1ccc([N+](=O)[O-])cc1[N+](=O)[O-] | fdhA | – | – | concentration not given, no demethylase | – | > 80% |
